Published values pooled from the literature.
Numbered parts are unrelated; each lists some results of a single study.

Series 1 — technique: protein binding microarray; form: double-stranded DNA, one strand shown; matrix: in vitro; concentration: not given; relative to: not given; reading: higher = stronger binding
Target: Histone acetyltransferase KAT6A, winged helix 1, GST fusion (KAT6A, Homo sapiens, UniProt Q92794, residues 1-85)
Setting: 8-mer, flanks averaged, mean of 2 arrays, mostly near background
Construct (chain): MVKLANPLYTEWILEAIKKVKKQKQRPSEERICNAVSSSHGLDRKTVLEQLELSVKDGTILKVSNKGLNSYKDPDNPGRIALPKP
| Sequence | E-score |
| --- | --- |
| AAGAGACG | 0.0589 |
| GCGTTAAC | 0.26 |
| TAATTGGA | -0.168 |
| ATATTGAC | 0.0607 |
| ACGAAAAC | -0.125 |
| GTGACTGA | -0.143 |
| CATTCGAC | -0.129 |
| CCGACCCC | 0.26 |
| AACCTGAA | -0.29 |
| ATAGTTCA | 0.0164 |

Series 2 — technique: protein-binding microarray; form: double-stranded DNA, one strand shown; matrix: in vitro; concentration: not given; reading: higher = stronger binding
Target: Max dimerization protein 1, bHLH-zipper, MAX partner unstated (MXD1, Homo sapiens, UniProt Q05195, residues 56-136)
Setting: k-mer, scored over probes, only values ≥0.25
Residues (chain): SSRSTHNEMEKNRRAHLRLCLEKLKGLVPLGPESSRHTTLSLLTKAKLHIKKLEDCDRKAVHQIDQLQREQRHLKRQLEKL
| Sequence | E-score |
| --- | --- |
| CGTGTTAA | 0.297 |
| ACGTGCGG | 0.405 |
| CATGTGTA | 0.437 |
| AGCACGTG | 0.491 |
| ACACATGT | 0.467 |
| CTACCCAC | 0.32 |
| CGTGTTAG | 0.328 |
| CATGGTCC | 0.351 |
| CATGGTGA | 0.272 |

Series 3 — technique: RNA Bind-n-Seq; form: RNA; matrix: in vitro; concentration: not given; relative to: input RNA pool; reading: higher = stronger binding
Target: RING finger protein unkempt homolog, zinc fingers 1-6, GST-SBP tag (UNK, Homo sapiens, UniProt Q9C0B0, residues 30-357)
Setting: RNA with constant flanks, human and mouse sites, ends assumed
All sequences stand within: GGGAGUUCUACAGUCCGACGAUC … CAACAGAGGAUUGAGCAUCA
Residues (chain): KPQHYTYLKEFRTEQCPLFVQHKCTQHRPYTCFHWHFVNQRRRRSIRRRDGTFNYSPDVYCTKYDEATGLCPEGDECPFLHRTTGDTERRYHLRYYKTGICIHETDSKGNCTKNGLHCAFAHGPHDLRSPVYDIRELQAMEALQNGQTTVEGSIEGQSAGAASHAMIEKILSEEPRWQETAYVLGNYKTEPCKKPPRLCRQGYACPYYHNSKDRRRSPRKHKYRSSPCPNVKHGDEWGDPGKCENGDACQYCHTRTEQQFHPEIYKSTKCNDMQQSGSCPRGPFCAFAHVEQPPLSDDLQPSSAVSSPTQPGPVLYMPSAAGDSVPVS
| Sequence | bound/input enrichment |
| --- | --- |
| ACUUAAUAAAGGUUGAUUUUGCUUUAUAUUGGGAGCUGAGCCACACCUCCCCUUAUAACUCUAUUGGUCAGUAAUGGUCAGUUUGUGGCUGUUAGGAAAAUGUUGCCUUUUAGCAUUCCA | 0.749 ratio |
| AGCCUCCAGAAGACCCCUACAAUGAGAGGCCUGGGGUCUGCAAGUCGCUGCUAGAAUUUUUUAAAGAAUGCAGCACCAACACAGAUUUGUAAGGUCCCUGGGCGCAUGCUGAACGCGCGU | 0.219 ratio |
| CAAAAUGCUUCAAGUGAUAACCAAGGAAUUCAAUUAAGUGCAGUUCAAGCUGCUAGGAAGCUUUUAUCCAGUGAUCGAAAUCCACCAAUUGAUGACUUAAUAAAAUCUGGAAUAUUGCCU | 0.333 ratio |
| GAGAAAGGGGAGAUGCAGGUUGUUCCAGUUUUGGUGCAUCUCCUGUCUGCCAUCAGCACUGUCAGGCUCUAUAUUCCAAAAGACCUUCGACCUGUGGACAACAGACAGAGUGUCUUAAAA | 0.0605 ratio |
| GUAGCCCGGCGCUCGGCAUGGCUCUCCUGGUGCUCGGUCUGGUGAGCUGUACCUUCUUUCUGGCAGUGAAUGGUCUGUAUUCCUCUAGUGAUGAUGUGAUCGAAUUAACUCCAUCGAAUU | 0.215 ratio |
| CUCCUGUCUCGAUUUACUCGAAAUGAGUUUAAUCUGGAAAGCAAGAGUACCAUUGGAGUAGAGUUUGCAACAAGAAGCAUCCAGGUUGAUGGGAAAACAAUAAAGGCACAGAUAUGGGAC | 0.287 ratio |
| CUCAGAAGAGCCAAAUCGAAAAAUGGGGGGAGAUCUUUGCGAGAAAGGCUAGAAAAAAUCGGUUUGAAUUUACCCGCGGGCAGGCGCAAAGCAGCAAAUGUCACGUUACUCACCUCCCUG | 0.192 ratio |
| UUGCUUGAAUGAAUGAUUUUGGUAGUAAUAUGAGCGUUAUCCUUAAAUCAAUGUUACAAUUUUUGCUAUUACUGAAAUACCGUCACAGAGGCCACAUUAUUGGCUGUCUAUACCAUUGCC | 0.285 ratio |
| AGCUGUGAGGGAUACGGAAGUUUGAUCAAUAUUGUCUUAACAUGCUUCAGAUAAAUCAGAUGUUUUCGGUGCAGCUGAGUCUUGGCGAGCAGACAUGGGAAUCCGAAGGGAGCAGUAUAA | 0.368 ratio |
| GUUAAAACUAAUCCUCAGGCUUCUGAGUCAGCAGACUCUAGUGAAACUGCAAACAGGAAAACUGAGACUAACACUGUAUCGCCAGCUGCUGCACAGCCACAAGCAGAUUGCCAAGAUAAC | 0.156 ratio |
| AGAUUUAAAGCUAGUCUACCAGAAGUAUUCUUUUGCAGUAAAGAAUGUUUGAAGUGUUCAUUUCUUCCUGUUCUUCCUCCUUCCACUCCCUUCAUGAUUUUGCUGUGAAAUACCAACUUG | 0.117 ratio |

Other studies, line by line
| Substance | target | assay | system | conditions | scale | measurement | value |
| --- | --- | --- | --- | --- | --- | --- | --- |
| PhoQ, residues 284 288 289 292 302 303 ASSHFY | PhoP, residues 12 14 15 18 19 AQCLL (Escherichia coli, UniProt P23836) | Sort-seq, measured: YFP reporter | E. coli | PhoQ-PhoP variant library, with: 10 µM Mg2+ | relative to: high Mg2+ state, higher = stronger signaling | fold induction | 1.9 |

A few entries again (series 1):
| Sequence | E-score |
| --- | --- |
| TAATTGGA | -0.168 |
| AAGAGACG | 0.0589 |
| CATTCGAC | -0.129 |
| GCGTTAAC | 0.26 |
